Experimental data of several laboratories.
Each line is one published result; not all experiments were run side by side. ± marks the error that the study gave.

Structure (SMILES) | test | test system | conditions | scale | remaining compound
C/C(=N\NC(=O)c1cccc(S(=O)(=O)N2CCOCC2)c1)c1cc(Cl)ccc1O | – | aqueous buffer | 4 days, 37 °C | – | 74%
O=C(NC1CCC(F)(F)CC1)C(c1cncnc1)N(C(=O)C(F)Cl)c1ccc(-c2cncs2)cc1 (stereo not drawn) | – | human liver microsomes | concentration not given, 0.5 h, pH 7.4 | – | 58.5%
Fc1cccc(-c2cc3cn[nH]c3nn2)c1F | LC-MS/MS | mouse liver S9 fraction, 0.25 mg/mL | 3 µM, 30 min, with: NADPH 1 mM | – | 72.1%
Cc1onc(-c2ccccc2)c1-c1ccc(S(=O)(=O)Cl)cc1 | – | HEPES buffer | 20 h, pH 7.4 | – | 1%
CCCCN1C(=O)c2cccc3c(N4CC[N+](C)(C5OC(C(=O)O)C(O)C(O)C5O)CC4)ccc(c23)C1=O (stereo not drawn) | – | human liver microsomes | 775.87 nM, 24 h, 4 °C | – | 99.6%
Cc1ccc(C(C)C)cc1.O=C(N=P12CN3CN(CN(C3)C1)C2)c1[c-]cccc1.[Cl-].[Ru+2] | – | DMSO-d6 | 2.5 h | – | > 99%
CO[C@@H](C[C@H]1C(C)=CC[C@@H]2[C@]3(C)C[C@H](O[C@@H]4O[C@@H](C)[C@H](O)[C@@H](O)[C@H]4O)[C@@H](O)C(C)(C)[C@H]3CC[C@]21C)[C@H](N)C(=O)O | – | simulated gastric fluid with pepsin | 1 µM, 240 min, pH 1.2 | – | 100%
CC(C)(C)[C@H](NC(=O)C(F)F)C(=O)N1C[C@H]2[C@@H]([C@H]1C(=O)N[C@H](C#N)C[C@@H]1CCCNC1=O)C2(C)C | – | human liver microsomes | 60 min | – | 99.4%
C=CC(=O)NCc1ccc(-n2nc3c(=O)[nH]nc(N)c3c2-c2oc3ccc(C)cc3c2C)cc1 | – | BALB/c nude mouse whole blood | 1 µM, 2 h, 37 °C | – | 91.9%
COc1cc(-c2cncc(-c3ccc(N4CCNCC4)cc3)c2C)cc(OC)c1OC | – | human liver microsomes | 1 µM, 1 h, pH 7.4 | – | 71%
Cc1cc(C)nc(NC(=S)N2CCN(c3ccc(C(F)(F)F)cn3)CC2)c1 | – | human liver microsomes | 15 min | – | 96.6 ± 0.4%
CCN(CC)C(=O)c1ccc(-c2cc(NCCCN3CCCCC3)c3ccccc3n2)cc1 | – | human plasma | 1 h | – | 100%
C=CC(=O)Nc1ccc(-n2nc3c(=O)[nH]nc(N)c3c2-c2oc3ccc(Br)cc3c2C)cc1 | – | BALB/c nude mouse whole blood | 1 µM, 1 h, 37 °C | – | 80.6%
Cc1cc(C)nc(NC(=S)N2CCN(Cc3ccc(C(F)(F)F)cc3)CC2)c1 | – | mouse liver microsomes | 1 µM, 15 min | – | 95.2 ± 4.3%
O=Cc1cc(C(F)(F)F)cc(C(F)(F)F)c1 | – | HEPES buffer | 20 h, pH 7.4 | – | 20%
Nc1nc(-c2ccccc2)nc2[nH]nc(Nc3ccc(F)cc3)c12 | – | human liver microsomes | time not given, metabolic stability | – | 34%
Cc1ccc(OCC(=O)N(Cc2cccs2)c2ccn[nH]2)cc1 | – | rat plasma | 750 ng/mL, 24 h, 37 °C, unit not given | baseline: time zero | 0.3

Structure (SMILES) | test | test system | conditions | scale | remaining compound
CN(Cc1cc(C2CC2)on1)C(=O)c1cccc(-c2ccc(F)cc2)c1 | – | human liver microsomes | 2 µM, 5 min, pH 7.5, without ABT | – | 85.4%
CCC(=O)N(CC#N)S(=O)(=O)c1ccc(C)cc1 | HPLC-MS | HEPES buffer | 1 h, pH 7.4 | – | 80%
O=C(O)C(Cc1c[nH]c2ccccc12)Nc1ccccc1 (stereo not drawn) | – | human liver microsomes | 1.5 µM, 60 min, pH 7.4, mean of replicates | baseline: 0 min | 90.4%
O=C1CC[C@H](N2Cc3cc(-c4ccn5ncc(Cl)c5n4)ccc3C2=O)C(=O)N1 | – | human liver microsomes | 1 µM, 5 min | – | 96.3%
[2H]C1([2H])CC[C@@H](C[C@@H](C#N)NC(=O)[C@@H]2[C@@H]3[C@H](CN2C(=O)[C@@H](NC(=O)C(F)(F)F)C(C)(C)C)C3(C)C)C(=O)N1 | – | mouse liver microsomes | 60 min, with: NADPH | – | 1.9%
CC(C)(C)[C@H](NC(=O)c1ccc(Oc2ccc(C(=O)N[C@H]3CCCC[C@@H]3O)cc2)cc1)C(=O)NCCN1CCCC1 | – | human liver microsomes | 1 µM, 60 min | – | 83.9%
O=S(=O)(Nc1ccc(OC(F)(F)F)cc1)N1CCCC(C2c3ccccc3CCc3ccccc32)C1 (stereo not drawn) | – | liver microsomes | 10 µM, 30 min | – | 24%
Cc1c(-c2c3c(N)n[nH]c(=O)c3nn2-c2ccc(NC(=O)/C=C/CN(C)C)cc2)oc2cc(F)ccc12 | – | BALB/c nude mouse whole blood | 1 µM, 1 h, 37 °C | – | 61.7%
C/C(=N\OCCN1CCCC1)c1ccc(C(F)(F)F)cc1 | – | human liver microsomes | 30 min | – | 57.7%
Cc1ccc2oc(-c3c4c(N)n[nH]c(=O)c4nn3-c3ccc(NC(=O)/C=C/CN(C)C)cc3)c(C)c2c1 | – | BALB/c nude mouse whole blood | 1 µM, 1 h, 37 °C | – | 61.9%
C=C(NC(=O)c1csc(-c2nc3c(cc2O)-c2nc(cs2)C(=O)NC(C(C)O)C(=O)NC(=C(C)OC)c2nc(cs2)C(=O)NC2c4nc(cs4)C(=O)NC(COC(=O)c4c5c6c(cccc6n4O)COC(=O)C(OC4CC(C)(O)C(N(C)C)C(C)O4)C2OC5)c2nc-3cs2)n1)C(N)=O (stereo not drawn) | – | dog liver microsomes | 2 µM, 60 min, with: NADPH | – | > 90%
C[C@](C(=O)NC1CCC(F)(F)CC1)(c1cncnc1)N(C(=O)[C@H](F)Cl)c1ccc(OC(F)(F)F)cc1 | – | human liver microsomes | concentration not given, 0.25 h, pH 7.4 | – | 29.5%
COc1ccc2c(c1)C(=O)C(=C[O-])C2.[Na+] | – | HEPES buffer | 20 h, pH 7.4 | – | 97%
CC[C@H](C)[C@H](NC(=O)[C@@H](NC(=O)[C@H](CCC(=O)O)NC(=O)[C@H](C)NC(=O)[C@H](C)NC(=O)[C@H](CCC(=O)O)NC(=O)[C@H](Cc1ccc2ccccc2c1)NC(=O)[C@H](Cc1ccc(OCc2ccccc2[N+](=O)[O-])cc1)NC(=O)[C@@H](NC(=O)[C@@H](NC(=O)[C@H](CCCNC(=N)N)NC(=O)[C@H](C)NC(=O)[C@H](CC(N)=O)NC(=O)[C@H](CCCCN)NC(=O)[C@H](CCCNC(=N)N)NC(=O)[C@H](CCCCN)NC(=O)[C@H](CCCNC(=N)N)NC(=O)[C@H](CCCCN)NC(=O)[C@@H]1CCCN1C(=O)[C@H](CCCNC(=N)N)NC(=O)[C@H](CCCCN)NC(=O)[C@H](CCCNC(=N)N)NC(=O)[C@H](CCCNC(=N)N)NC(C)=O)C(C)C)[C@@H](C)O)[C@@H](C)CC)C(N)=O | HPLC | ambient light | 0 min | – | 99%
O=C(NC1CCC(F)(F)CC1)C(c1cncnc1)N(C(=O)C(F)Cl)c1ccc(OC(F)(F)F)cc1 (stereo not drawn) | – | mouse liver microsomes | concentration not given, 1 h, pH 7.4 | – | 93.9%
O=Cc1c(O)c(C=O)c(O)c(C=O)c1O | – | HEPES buffer | 1 mM, 20 h, pH 7.4, 10% acetonitrile | – | 74%

Excerpt of the above:
Structure (SMILES) | test | test system | conditions | scale | remaining compound
Cc1cc(C)nc(NC(=S)N2CCN(Cc3ccc(C(F)(F)F)cc3)CC2)c1 | – | mouse liver microsomes | 1 µM, 15 min | – | 95.2 ± 4.3%
CCN(CC)C(=O)c1ccc(-c2cc(NCCCN3CCCCC3)c3ccccc3n2)cc1 | – | human plasma | 1 h | – | 100%
